{"data": "Experimental data pooled from the literature", "note": "Parts stem from different laboratories: compare values within a part only. Several values in a cell are separate wells, animals, samples, runs or records.", "chain of UniProt Q02156 (whole entry, looked up)": "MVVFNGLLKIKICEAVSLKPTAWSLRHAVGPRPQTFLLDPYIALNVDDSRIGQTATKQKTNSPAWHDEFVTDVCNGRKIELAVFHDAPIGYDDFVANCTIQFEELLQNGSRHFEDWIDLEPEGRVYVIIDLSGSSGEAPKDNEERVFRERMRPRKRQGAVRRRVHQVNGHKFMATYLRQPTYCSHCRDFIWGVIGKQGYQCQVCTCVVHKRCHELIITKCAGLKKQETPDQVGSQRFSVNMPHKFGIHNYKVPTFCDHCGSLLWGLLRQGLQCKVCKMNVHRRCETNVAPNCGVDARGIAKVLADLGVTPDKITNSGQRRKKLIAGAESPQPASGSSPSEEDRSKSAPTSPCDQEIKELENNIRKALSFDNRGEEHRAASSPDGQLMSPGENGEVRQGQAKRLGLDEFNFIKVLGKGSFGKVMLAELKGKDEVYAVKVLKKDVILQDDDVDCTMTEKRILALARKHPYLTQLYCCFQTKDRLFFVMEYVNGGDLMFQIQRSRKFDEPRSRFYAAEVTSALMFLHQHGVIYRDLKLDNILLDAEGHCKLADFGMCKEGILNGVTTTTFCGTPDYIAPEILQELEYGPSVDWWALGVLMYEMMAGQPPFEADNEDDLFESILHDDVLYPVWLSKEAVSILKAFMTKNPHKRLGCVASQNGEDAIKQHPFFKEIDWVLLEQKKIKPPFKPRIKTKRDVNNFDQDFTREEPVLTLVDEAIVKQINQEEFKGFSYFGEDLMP", "chain of UniProt P53355 (whole entry, looked up)": "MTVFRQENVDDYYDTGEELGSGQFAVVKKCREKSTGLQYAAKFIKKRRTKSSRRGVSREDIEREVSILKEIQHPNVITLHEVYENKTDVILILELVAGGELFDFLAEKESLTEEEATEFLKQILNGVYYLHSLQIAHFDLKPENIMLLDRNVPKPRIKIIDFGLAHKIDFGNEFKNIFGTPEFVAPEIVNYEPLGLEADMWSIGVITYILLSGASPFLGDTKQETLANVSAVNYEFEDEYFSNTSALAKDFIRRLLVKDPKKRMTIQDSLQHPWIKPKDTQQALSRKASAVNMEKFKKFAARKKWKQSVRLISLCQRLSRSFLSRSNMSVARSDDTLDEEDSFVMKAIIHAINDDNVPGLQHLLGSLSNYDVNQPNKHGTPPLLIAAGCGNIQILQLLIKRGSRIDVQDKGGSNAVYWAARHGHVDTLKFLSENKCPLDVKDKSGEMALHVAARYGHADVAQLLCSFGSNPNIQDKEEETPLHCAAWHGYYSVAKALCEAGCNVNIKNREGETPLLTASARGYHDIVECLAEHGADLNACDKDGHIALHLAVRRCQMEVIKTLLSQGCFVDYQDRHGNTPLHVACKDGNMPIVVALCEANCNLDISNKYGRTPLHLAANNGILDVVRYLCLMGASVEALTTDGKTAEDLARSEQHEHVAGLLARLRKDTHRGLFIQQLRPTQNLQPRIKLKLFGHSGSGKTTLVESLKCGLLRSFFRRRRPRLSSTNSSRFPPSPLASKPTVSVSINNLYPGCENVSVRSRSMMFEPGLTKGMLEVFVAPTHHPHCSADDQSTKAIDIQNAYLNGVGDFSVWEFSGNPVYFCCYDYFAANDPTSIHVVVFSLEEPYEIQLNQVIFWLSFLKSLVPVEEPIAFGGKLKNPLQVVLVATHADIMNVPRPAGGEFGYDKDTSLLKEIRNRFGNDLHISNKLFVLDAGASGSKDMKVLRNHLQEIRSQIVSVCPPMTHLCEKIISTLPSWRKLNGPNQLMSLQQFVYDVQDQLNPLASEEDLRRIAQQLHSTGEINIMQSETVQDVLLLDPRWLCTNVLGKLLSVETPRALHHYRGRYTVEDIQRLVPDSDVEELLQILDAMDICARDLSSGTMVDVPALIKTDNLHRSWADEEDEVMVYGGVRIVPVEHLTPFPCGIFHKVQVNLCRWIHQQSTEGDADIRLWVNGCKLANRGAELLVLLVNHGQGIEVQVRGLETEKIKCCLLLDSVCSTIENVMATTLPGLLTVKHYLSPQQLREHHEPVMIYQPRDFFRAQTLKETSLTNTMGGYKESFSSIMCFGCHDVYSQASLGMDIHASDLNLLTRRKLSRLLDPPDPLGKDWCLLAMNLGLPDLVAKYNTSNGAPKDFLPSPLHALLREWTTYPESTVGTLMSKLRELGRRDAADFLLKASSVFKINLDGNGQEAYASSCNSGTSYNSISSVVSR", "chain of UniProt P36507 (whole entry, looked up)": "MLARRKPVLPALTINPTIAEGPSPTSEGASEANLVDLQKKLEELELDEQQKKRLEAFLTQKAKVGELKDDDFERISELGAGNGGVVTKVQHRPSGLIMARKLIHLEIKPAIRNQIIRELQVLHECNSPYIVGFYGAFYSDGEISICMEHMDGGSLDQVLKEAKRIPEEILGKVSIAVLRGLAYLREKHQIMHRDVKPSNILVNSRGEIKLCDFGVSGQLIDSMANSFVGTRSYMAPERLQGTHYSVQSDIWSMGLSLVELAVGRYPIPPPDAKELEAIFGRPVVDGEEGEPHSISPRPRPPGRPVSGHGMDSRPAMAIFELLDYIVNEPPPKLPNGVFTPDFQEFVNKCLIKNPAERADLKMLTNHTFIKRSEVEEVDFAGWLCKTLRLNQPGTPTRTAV", "chain of UniProt P23458 (whole entry, looked up)": "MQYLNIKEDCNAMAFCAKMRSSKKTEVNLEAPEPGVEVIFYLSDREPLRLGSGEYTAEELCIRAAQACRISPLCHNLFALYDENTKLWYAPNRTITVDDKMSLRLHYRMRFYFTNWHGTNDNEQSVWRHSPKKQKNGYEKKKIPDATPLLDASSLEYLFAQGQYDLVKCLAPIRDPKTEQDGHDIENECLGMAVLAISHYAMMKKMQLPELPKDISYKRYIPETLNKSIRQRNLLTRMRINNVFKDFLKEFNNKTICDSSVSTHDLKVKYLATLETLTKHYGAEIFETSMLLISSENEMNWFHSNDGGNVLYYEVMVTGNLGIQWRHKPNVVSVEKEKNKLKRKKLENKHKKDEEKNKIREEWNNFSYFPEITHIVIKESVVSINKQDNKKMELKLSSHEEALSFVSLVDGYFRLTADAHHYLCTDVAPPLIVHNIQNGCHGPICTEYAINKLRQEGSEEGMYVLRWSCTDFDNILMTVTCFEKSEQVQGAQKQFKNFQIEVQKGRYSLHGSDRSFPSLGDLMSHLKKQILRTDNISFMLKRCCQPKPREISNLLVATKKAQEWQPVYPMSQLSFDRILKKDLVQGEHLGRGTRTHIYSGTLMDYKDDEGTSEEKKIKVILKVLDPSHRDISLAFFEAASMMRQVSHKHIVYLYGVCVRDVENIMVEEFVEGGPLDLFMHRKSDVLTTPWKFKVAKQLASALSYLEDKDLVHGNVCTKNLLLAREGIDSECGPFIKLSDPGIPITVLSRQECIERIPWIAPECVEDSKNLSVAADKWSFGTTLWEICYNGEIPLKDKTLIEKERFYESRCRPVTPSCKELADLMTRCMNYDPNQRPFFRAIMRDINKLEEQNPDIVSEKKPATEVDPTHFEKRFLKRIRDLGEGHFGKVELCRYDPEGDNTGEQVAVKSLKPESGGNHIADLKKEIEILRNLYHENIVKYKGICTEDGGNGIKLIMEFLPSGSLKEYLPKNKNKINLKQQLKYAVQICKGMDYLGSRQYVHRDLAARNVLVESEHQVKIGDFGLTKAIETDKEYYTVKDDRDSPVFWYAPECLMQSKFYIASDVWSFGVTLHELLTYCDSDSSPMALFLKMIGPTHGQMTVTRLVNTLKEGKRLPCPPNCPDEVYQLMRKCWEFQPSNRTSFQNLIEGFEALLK"}
{"data": "Block 1", "cell line": "mouse MPNST tumor cells", "method": "high-content nuclear imaging", "measured": "cell number", "concentration": "10 µM", "time": "12 h", "notes": "mean of 2 replicates", "baseline": "plate mean", "direction": "higher = more cells"}
{"Compound": "Cc1ccnc(NS(=O)(=O)c2ccc(N)cc2)n1", "nuclei count": "4.42 z-score"}
{"Compound": "Cc1ccc(Nc2nccc(N(C)c3ccc4c(C)n(C)nc4c3)n2)cc1S(N)(=O)=O", "nuclei count": "-1.11 z-score"}
{"Compound": "COC1(C2=NCCN2)COc2ccccc2O1 (stereo not shown)", "nuclei count": "0.997 z-score"}
{"Compound": "O=C(Nc1ccccc1C(=O)NC1CCCCNC1=O)c1cc2ccccc2s1 (stereo not shown)", "nuclei count": "2.39 z-score"}
{"Compound": "CCCn1c(=O)c2nc(C34CC5CC(CC3C5)C4)[nH]c2n(CCC)c1=O", "nuclei count": "3.1 z-score"}
{"Compound": "CC[N+](CC)(CC(=O)Nc1c(C)cccc1C)Cc1ccccc1", "nuclei count": "0.916 z-score"}
{"Compound": "CC(C)NC[C@@H](O)COc1cccc2ccccc12", "nuclei count": "3.54 z-score"}
{"Compound": "O=C(O)c1ccc(N2C(=O)C(=Cc3ccc(-c4ccc([N+](=O)[O-])cc4)o3)C=C2c2ccccc2)cc1", "nuclei count": "-0.362 z-score"}
{"Compound": "COc1cc(C#N)ccc1S(=O)(=O)Nc1ccc2c(c1)cc(C)c(=O)n2C", "nuclei count": "1.15 z-score and 0.682 z-score"}
{"Compound": "O=S(=O)(NC1CCCCC1)c1ccc2c(c1)C(=NO)c1cc(S(=O)(=O)NC3CCCCC3)ccc1-2", "nuclei count": "-3.87 z-score"}
{"Compound": "N[C@@H](Cc1cc(CP(=O)(O)O)cc(-c2ccccc2Cl)c1)C(=O)O", "nuclei count": "1.66 z-score"}
{"Compound": "CN1CCN(C(c2ccccc2)c2ccc(Cl)cc2)CC1 (stereo not shown)", "nuclei count": "-0.747 z-score"}
{"Compound": "Nc1ncn(C2OC(CO)C(O)C2O)c(=O)n1 (stereo not shown)", "nuclei count": "-0.298 z-score and -1.91 z-score"}
{"Compound": "COc1cc2ncnc(Nc3ccc(Oc4ccccc4)cc3)c2cc1OC", "nuclei count": "8.22 z-score"}
{"data": "Block 2", "Compound": "CO[C@@H](C)c1c(Nc2ccc([C@H](N(C)C(=O)C3CCS(=O)(=O)CC3)C(F)(F)F)cc2)cnc2cc(Cl)nn12", "observed": "cell-free assay", "method": "competition with immobilised ligand", "concentration": "1 µM"}
{"target": "PRKG1 (Homo sapiens, UniProt Q13976)", "remaining binding": "85%"}
{"target": "PRKCE (Homo sapiens, UniProt Q02156)", "remaining binding": "100%"}
{"target": "CAMK2G (Homo sapiens, UniProt Q13555)", "remaining binding": "77%"}
{"target": "KIT (Homo sapiens, UniProt P10721, D816V)", "remaining binding": "96%"}
{"target": "CSNK1G3 (Homo sapiens, UniProt Q9Y6M4)", "remaining binding": "72%"}
{"target": "BRAF (Homo sapiens, UniProt P15056)", "remaining binding": "85%"}
{"target": "PKN1 (Homo sapiens, UniProt Q16512)", "remaining binding": "100%"}
{"target": "Tyrosine-protein kinase JAK1, JH2 (JAK1, Homo sapiens, UniProt P23458)", "remaining binding": "100%"}
{"target": "CDK14 (Homo sapiens, UniProt O94921)", "remaining binding": "100%"}
{"target": "DAPK1 (Homo sapiens, UniProt P53355)", "remaining binding": "88%"}
{"target": "MAP2K2 (Homo sapiens, UniProt P36507)", "remaining binding": "96%"}
{"target": "CAMK1G (Homo sapiens, UniProt Q96NX5)", "remaining binding": "100%"}
{"data": "Block 3", "target": "Serine/threonine-protein kinase Nek7 (NEK7, Homo sapiens, UniProt Q8TDX7)", "observed": "enzyme activity", "action": "inhibitor", "concentration": "0.5 µM", "baseline": "control", "Residues (Q8TDX7 1-302)": "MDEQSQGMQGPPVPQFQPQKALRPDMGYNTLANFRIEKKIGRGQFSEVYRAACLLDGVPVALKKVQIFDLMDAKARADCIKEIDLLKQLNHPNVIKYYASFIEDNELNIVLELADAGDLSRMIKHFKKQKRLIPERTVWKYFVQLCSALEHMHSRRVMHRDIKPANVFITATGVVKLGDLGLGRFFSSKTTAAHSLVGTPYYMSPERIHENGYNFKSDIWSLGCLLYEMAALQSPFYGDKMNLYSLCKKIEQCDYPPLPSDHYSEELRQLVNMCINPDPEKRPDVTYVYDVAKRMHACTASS"}
{"SMILES": "O=C(c1cc2cc(O)ccc2[nH]1)c1cc2cc(O)ccc2[nH]1", "remaining activity": "101%"}
{"SMILES": "CCCNC(=O)Nc1ccc(Oc2ncnc3cc(OC)c(OC)cc23)cc1Cl", "remaining activity": "103%"}
{"SMILES": "O=C1NC(=O)c2c1c1c3ccccc3[nH]c1c1[nH]c3cc(Br)ccc3c21", "remaining activity": "96.8%"}
{"SMILES": "O=c1cc(N2CCOCC2)oc2c(-c3ccccc3)cccc12", "remaining activity": "92.1%"}
{"SMILES": "O=C1Nc2ccccc2/C1=C\\c1c(Cl)[nH]c2ccccc12", "remaining activity": "97.6%"}
{"SMILES": "Oc1cccc(-c2nc(N3CCOCC3)c3oc4ncccc4c3n2)c1", "remaining activity": "97.3%"}
{"SMILES": "O=C1NC(=O)c2c1c1c3ccccc3[nH]c1n1cncc21", "remaining activity": "80.3%"}
{"SMILES": "Cc1cc(Nc2cc(N3CCN(C)CC3)nc(Sc3ccc(NC(=O)C4CC4)cc3)n2)[nH]n1", "remaining activity": "92.8%"}
{"SMILES": "COc1ccc2c(c1)c(C1=C(c3c[nH]c4ccccc34)C(=O)NC1=O)cn2CCCN(C)C", "remaining activity": "99.1%"}
{"SMILES": "N#Cc1cnc2cnc(NCc3cccnc3)cc2c1Nc1ccc(F)c(Cl)c1", "remaining activity": "102%"}
{"SMILES": "CN1CCN(c2ccc3nc(-c4c(N)c5c(F)cccc5[nH]c4=O)[nH]c3c2)CC1", "remaining activity": "91.1%"}
{"SMILES": "O=Nc1c(-c2c(O)[nH]c3cc(Br)ccc23)[nH]c2ccccc12", "remaining activity": "103%"}
{"SMILES": "COc1cccc(-c2cc(=O)c3ccccc3o2)c1N", "remaining activity": "94.7%"}
{"SMILES": "Cc1ccc(S(=O)(=O)/C=C/C#N)cc1", "remaining activity": "93.4%"}
{"SMILES": "c1ccc2c(-c3ccncc3)c[nH]c2c1", "remaining activity": "104%"}
{"SMILES": "O=C1Nc2ccc(Br)cc2/C1=C/c1cc2c([nH]1)CCCC2", "remaining activity": "103%"}
{"SMILES": "O=C1Cc2c([nH]c3ccc(Br)cc23)-c2ccccc2N1", "remaining activity": "94.3%"}
{"SMILES": "c1ccc(-c2n[nH]c3c2oc2ccccc23)cc1", "remaining activity": "105%"}
{"SMILES": "CN(C)S(=O)(=O)c1ccc2c(c1)/C(=C/c1cc3c([nH]1)CCCC3)C(=O)N2", "remaining activity": "103%"}
{"SMILES": "COc1ccc(COc2ccc(Cc3cnc(N)nc3N)cc2OC)cc1", "remaining activity": "100%"}
{"data": "Block 4", "target": "CRBN/Zinc finger protein Helios (Homo sapiens, UniProt Q96SW2+Q9UKS7)", "action": "degrader", "method": "HiBiT", "cell line": "HEK293", "concentration": "123.5 nM", "chain of UniProt Q9UKS7 (whole entry, looked up)": "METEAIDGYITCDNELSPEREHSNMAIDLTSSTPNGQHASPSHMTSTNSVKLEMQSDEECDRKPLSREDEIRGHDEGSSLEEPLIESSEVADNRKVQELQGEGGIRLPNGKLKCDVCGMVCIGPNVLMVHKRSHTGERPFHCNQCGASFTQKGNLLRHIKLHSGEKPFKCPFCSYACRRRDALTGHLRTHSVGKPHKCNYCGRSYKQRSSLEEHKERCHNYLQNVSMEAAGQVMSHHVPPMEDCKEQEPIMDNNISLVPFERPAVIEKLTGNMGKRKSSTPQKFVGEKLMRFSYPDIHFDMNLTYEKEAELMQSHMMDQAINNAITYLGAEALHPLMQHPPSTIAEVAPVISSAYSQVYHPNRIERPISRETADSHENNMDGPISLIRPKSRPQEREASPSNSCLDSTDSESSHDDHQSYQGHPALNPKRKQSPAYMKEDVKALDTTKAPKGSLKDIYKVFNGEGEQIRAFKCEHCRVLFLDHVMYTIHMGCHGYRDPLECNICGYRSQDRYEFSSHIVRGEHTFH", "chain of UniProt Q96SW2 (whole entry, looked up)": "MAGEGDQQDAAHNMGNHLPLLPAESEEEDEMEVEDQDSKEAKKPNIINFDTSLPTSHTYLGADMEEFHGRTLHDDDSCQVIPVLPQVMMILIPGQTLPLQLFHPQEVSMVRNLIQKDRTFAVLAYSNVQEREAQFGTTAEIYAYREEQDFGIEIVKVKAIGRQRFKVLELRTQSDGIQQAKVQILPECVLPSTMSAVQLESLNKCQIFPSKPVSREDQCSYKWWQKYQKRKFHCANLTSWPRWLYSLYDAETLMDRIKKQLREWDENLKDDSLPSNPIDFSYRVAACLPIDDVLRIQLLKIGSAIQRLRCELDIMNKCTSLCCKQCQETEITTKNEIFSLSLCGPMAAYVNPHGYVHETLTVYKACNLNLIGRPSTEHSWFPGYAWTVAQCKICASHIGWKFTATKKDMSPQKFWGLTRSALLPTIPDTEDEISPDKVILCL"}
{"Compound": "O=C1CCC(N2Cc3c(ccc4c3OCC43CCC(Oc4ccccc4)CC3)C2=O)C(=O)N1 (stereo not shown)", "protein remaining": "86.1%"}
{"Compound": "O=C1CCC(N2Cc3c(ccc4c3OCC43CCC(Cc4ccccc4)CC3)C2=O)C(=O)N1 (stereo not shown)", "protein remaining": "94.1%"}
{"Compound": "O=C1CCC(N2Cc3c(ccc4c3OCCC43CCN(Cc4ccccc4)CC3)C2=O)C(=O)N1 (stereo not shown)", "protein remaining": "69.2%"}
